Results of several laboratories.
Each numbered part is a random draw from the data of one study; scales do not carry over between parts.
Chain of UniProt Q8NI60 (whole entry, looked up): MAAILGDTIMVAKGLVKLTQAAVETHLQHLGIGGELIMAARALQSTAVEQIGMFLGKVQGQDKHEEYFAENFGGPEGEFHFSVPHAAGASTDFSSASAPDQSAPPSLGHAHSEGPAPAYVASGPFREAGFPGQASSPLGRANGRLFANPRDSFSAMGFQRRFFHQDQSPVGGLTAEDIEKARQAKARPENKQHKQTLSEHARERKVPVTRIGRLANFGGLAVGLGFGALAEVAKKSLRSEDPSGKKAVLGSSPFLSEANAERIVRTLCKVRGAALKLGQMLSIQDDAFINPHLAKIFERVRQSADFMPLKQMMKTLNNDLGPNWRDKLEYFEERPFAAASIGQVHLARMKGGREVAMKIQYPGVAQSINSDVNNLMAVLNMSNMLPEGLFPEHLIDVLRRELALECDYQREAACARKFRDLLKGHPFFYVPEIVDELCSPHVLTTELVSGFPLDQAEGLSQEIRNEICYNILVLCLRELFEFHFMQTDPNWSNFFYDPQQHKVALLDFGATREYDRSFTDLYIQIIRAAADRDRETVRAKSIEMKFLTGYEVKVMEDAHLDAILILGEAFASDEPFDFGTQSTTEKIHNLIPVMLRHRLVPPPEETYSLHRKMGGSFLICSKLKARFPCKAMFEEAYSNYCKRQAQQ
Chain of UniProt Q8TDX7 (whole entry, looked up): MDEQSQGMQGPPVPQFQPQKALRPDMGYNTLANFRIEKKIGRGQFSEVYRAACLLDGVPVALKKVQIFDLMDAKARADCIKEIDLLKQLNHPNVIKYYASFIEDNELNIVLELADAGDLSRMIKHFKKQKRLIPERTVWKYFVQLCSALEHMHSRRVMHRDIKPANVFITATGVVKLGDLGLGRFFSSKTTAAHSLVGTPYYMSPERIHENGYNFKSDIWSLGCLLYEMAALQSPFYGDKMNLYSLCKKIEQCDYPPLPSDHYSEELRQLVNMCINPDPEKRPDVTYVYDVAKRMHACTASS
Chain of UniProt Q00536 (whole entry, looked up): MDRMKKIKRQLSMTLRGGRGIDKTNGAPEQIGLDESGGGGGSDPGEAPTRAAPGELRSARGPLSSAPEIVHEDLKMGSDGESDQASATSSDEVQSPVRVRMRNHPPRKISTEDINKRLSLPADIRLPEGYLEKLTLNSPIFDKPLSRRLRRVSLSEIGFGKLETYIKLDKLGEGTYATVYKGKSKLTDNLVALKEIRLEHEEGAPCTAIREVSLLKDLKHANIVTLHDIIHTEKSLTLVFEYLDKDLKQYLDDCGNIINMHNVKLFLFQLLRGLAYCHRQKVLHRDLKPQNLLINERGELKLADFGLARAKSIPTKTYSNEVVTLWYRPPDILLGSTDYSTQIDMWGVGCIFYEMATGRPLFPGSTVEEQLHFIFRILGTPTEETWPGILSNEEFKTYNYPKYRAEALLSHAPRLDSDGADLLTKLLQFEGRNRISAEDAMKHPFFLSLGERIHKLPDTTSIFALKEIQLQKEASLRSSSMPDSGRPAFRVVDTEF
Chain of UniProt P42684 (whole entry, looked up): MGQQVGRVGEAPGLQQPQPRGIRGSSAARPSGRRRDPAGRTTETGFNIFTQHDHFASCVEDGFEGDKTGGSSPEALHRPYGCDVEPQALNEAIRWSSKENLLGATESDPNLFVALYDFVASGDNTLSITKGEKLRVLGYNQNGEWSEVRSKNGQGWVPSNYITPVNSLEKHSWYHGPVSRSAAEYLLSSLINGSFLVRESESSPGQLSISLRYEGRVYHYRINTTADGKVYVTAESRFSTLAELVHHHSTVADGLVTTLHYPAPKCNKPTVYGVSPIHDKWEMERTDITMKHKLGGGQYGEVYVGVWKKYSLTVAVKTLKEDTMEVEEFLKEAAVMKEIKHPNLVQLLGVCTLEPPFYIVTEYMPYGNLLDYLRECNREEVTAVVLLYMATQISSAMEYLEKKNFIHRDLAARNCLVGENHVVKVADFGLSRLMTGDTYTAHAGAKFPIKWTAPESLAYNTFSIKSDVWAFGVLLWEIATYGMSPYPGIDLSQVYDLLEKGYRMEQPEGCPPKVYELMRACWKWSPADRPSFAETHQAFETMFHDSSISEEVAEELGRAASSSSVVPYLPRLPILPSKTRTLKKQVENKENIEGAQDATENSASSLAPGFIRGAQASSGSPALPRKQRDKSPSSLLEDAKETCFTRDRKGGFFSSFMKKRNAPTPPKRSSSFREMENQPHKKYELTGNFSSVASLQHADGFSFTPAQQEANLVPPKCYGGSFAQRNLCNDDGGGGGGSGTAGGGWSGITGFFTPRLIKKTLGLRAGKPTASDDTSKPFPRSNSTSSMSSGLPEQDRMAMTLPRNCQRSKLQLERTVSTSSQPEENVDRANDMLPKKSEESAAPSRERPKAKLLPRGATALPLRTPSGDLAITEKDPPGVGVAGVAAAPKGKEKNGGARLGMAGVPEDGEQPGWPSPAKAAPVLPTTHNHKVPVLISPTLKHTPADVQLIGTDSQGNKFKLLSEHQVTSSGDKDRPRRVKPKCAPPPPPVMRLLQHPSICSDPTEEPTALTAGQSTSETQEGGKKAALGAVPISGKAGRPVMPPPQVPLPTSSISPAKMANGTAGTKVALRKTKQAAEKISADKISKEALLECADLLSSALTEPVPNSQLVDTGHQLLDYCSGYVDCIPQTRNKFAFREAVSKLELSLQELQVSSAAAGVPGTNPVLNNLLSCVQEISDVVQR
Chain of UniProt Q13976 (whole entry, looked up): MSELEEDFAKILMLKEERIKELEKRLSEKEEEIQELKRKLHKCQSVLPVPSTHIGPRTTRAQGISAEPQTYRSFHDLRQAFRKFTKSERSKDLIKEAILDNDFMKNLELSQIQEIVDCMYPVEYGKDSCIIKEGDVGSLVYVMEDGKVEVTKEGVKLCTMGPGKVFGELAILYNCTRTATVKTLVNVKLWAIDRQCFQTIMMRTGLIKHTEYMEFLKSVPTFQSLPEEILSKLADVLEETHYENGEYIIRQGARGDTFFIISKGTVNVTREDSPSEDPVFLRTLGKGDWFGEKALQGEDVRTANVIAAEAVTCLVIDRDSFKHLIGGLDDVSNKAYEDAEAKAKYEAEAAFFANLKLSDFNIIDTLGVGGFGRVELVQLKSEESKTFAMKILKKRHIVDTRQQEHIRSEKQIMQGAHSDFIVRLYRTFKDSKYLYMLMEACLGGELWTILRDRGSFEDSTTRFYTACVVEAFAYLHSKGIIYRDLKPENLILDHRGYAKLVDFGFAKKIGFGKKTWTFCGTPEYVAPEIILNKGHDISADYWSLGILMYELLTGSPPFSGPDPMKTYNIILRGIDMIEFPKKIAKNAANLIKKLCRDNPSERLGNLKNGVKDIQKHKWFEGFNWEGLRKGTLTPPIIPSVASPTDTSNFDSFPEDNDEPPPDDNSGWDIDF
Chain of UniProt Q7KZI7 (whole entry, looked up): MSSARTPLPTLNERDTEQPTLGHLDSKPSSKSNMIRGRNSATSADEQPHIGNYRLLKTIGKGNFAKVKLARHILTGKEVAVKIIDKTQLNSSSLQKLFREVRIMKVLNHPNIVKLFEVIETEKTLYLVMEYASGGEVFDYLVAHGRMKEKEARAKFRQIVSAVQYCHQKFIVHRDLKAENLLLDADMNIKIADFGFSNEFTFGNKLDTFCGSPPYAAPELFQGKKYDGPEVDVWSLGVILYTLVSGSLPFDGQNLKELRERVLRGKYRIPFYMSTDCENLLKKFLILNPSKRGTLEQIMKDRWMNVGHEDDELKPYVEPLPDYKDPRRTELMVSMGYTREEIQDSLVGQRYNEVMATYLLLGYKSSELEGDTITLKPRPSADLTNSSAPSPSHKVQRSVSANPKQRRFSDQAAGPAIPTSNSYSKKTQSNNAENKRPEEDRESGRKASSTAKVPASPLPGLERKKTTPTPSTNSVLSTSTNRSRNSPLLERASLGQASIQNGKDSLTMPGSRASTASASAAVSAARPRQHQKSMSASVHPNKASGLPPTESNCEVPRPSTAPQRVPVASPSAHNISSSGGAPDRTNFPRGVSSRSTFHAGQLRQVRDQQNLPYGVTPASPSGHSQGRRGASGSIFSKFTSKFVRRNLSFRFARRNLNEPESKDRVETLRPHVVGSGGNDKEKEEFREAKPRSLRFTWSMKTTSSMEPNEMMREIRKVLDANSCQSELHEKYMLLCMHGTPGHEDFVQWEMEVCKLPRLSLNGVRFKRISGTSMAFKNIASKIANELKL
Chain of UniProt Q16816 (whole entry, looked up): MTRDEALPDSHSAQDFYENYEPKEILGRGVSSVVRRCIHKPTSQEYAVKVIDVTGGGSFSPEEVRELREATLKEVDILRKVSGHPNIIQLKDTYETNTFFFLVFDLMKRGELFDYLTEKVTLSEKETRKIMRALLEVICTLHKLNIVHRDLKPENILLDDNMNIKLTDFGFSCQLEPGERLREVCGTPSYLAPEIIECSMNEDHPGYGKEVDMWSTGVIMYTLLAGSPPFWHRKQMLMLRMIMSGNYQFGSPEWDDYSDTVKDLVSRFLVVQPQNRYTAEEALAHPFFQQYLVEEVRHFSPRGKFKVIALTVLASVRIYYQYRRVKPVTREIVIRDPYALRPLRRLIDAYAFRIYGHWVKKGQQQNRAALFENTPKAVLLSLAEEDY

Study 1
Compound: CNC(=O)c1ccc(Nc2ncc(C(F)(F)F)c(NCc3nccnc3N(C)S(C)(=O)=O)n2)cc1
Effect on: cell-free assay
Method: competition with immobilised ligand
Tested at: 0.1 µM
Measurement: remaining binding
target = Ribosomal protein S6 kinase alpha-3, C-terminal kinase domain (RPS6KA3, Homo sapiens, UniProt P51812); result = 100%
target = Serine/threonine-protein kinase/endoribonuclease IRE1 (ERN1, Homo sapiens, UniProt O75460); result = 75%
target = Cyclin-dependent kinase 16 (CDK16, Homo sapiens, UniProt Q00536); result = 99%
target = Serine/threonine-protein kinase MARK2 (MARK2, Homo sapiens, UniProt Q7KZI7); result = 66%
target = Leucine-rich repeat serine/threonine-protein kinase 2 (LRRK2, Homo sapiens, UniProt Q5S007); result = 60%
target = Proto-oncogene tyrosine-protein kinase receptor Ret (RET, Homo sapiens, UniProt P07949, M918T); result = 72%
target = Mast/stem cell growth factor receptor Kit (KIT, Homo sapiens, UniProt P10721, A829P); result = 85%
target = Casein kinase I isoform alpha-like (CSNK1A1L, Homo sapiens, UniProt Q8N752); result = 77%
target = Serine/threonine-protein kinase Nek7 (NEK7, Homo sapiens, UniProt Q8TDX7); result = 70%
target = Serine/threonine-protein kinase tousled-like 2 (TLK2, Homo sapiens, UniProt Q86UE8); result = 90%
target = Epidermal growth factor receptor (EGFR, Homo sapiens, UniProt P00533, G719S); result = 92%
target = Tyrosine-protein kinase ABL1, phosphorylated (ABL1, Homo sapiens, UniProt P00519, Y253F); result = 100%
target = Serine/threonine-protein kinase Nek9 (NEK9, Homo sapiens, UniProt Q8TD19); result = 80%
target = cGMP-dependent protein kinase 1 (PRKG1, Homo sapiens, UniProt Q13976); result = 100%
target = Atypical kinase COQ8A, mitochondrial (COQ8A, Homo sapiens, UniProt Q8NI60); result = 98%
target = Epidermal growth factor receptor (EGFR, Homo sapiens, UniProt P00533, G719C); result = 94%
target = Hepatocyte growth factor receptor (MET, Homo sapiens, UniProt P08581, M1250T); result = 63%
target = Epidermal growth factor receptor (EGFR, Homo sapiens, UniProt P00533, A750P/del747-749); result = 97%
target = Mitogen-activated protein kinase kinase kinase 2 (MAP3K2, Homo sapiens, UniProt Q9Y2U5); result = 65%

Study 2
Host: mouse
Matrix: microsomes or S9
Tested at: 2 µM
Time: 0.5 h
Measurement: remaining compound
Structure (SMILES) = O=C(O)C(c1ccsc1)N1C[C@@H]2Oc3c(F)ccc(F)c3O[C@@H]2C1 (some centres unmarked); result = 76.3%
Structure (SMILES) = OCCOCCN1CCN(c2nc(Cl)cc(Nc3ccc4[nH]ncc4c3)n2)CC1; result = 7.15%
Structure (SMILES) = CCn1nc(C)c2ncnc(NC3CCCCCC3)c21; result = 0.5%
Structure (SMILES) = COC(=O)c1c(NC(=O)c2ccco2)sc2c1CCC2; result = 1.14%
Structure (SMILES) = CCCNS(=O)(=O)c1nc2nc(C)cc(C)n2n1; result = 47.5%
Structure (SMILES) = CC(=O)Nc1ccccc1C(c1ccc(C)o1)c1ccc(C)o1; result = 2.16%
Structure (SMILES) = CN1C(=O)OC2(C)CC(C)(C)c3ccccc3C12C (centres unmarked); result = 0.415%
Structure (SMILES) = CCOc1ccc(CNC(=O)C(NS(=O)(=O)c2ccc3c(c2)CCCC(=O)N3)C(C)C)cc1 (centres unmarked); result = 65%

Study 3
Compound: O=C(Nc1cnn(-c2csc(C(=O)NC3COC3)c2)c1)Nc1ccccc1Cl
Effect on: enzyme activity
Tested at: 5 µM
Measurement: remaining activity
target = Tyrosine-protein kinase Fer (FER, Homo sapiens, UniProt P16591); relative to = untreated control; result = 100%
target = Cyclin-dependent kinase 2, with cyclin O (CDK2, Homo sapiens, UniProt P24941); relative to = untreated control; result = 91.3%
target = Kinase suppressor of Ras 1 (KSR1, Homo sapiens, UniProt Q8IVT5); mode = inhibitor; result = 101%
target = Phosphorylase b kinase gamma catalytic chain, skeletal muscle/heart isoform (PHKG1, Homo sapiens, UniProt Q16816); relative to = untreated control; result = 100%
target = Tyrosine-protein kinase ABL2 (ABL2, Homo sapiens, UniProt P42684); relative to = untreated control; result = 92.3%

Study 4
Target: Calcium/calmodulin-dependent protein kinase type II subunit alpha (CAMK2A, Homo sapiens, UniProt Q9UQM7)
Chain of UniProt Q9UQM7 (whole entry, looked up): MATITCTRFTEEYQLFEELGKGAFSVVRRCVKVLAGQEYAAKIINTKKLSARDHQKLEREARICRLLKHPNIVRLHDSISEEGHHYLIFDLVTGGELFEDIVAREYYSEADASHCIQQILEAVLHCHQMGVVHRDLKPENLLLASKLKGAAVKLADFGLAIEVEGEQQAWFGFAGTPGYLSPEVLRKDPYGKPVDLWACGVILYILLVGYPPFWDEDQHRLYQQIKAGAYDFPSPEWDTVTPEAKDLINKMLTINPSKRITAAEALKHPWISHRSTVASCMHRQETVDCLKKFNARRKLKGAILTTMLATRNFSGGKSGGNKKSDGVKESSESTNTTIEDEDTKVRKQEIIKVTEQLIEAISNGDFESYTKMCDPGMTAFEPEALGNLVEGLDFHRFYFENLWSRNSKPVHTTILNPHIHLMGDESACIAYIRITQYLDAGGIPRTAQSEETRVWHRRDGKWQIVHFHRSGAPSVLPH
Effect on: enzyme activity
Mode: inhibitor
Tested at: 10 µM
Measurement: inhibition
SMILES = N=c1nc(N2CCCCC2)cc(N)n1O; result = 7%
SMILES = O=C(CCCN1CC=C(n2c(=O)[nH]c3ccccc32)CC1)c1ccc(F)cc1; result = -10%
SMILES = CCCCC(CC)COC(=O)c1ccccc1C(=O)O (centres unmarked); result = 2%
SMILES = C=CCc1ccc(O)c(O)c1; result = -34%
SMILES = O=C(OCc1ccccc1)c1ccccc1O; result = 14%
SMILES = C[C@@H]1C[C@H]2[C@@H]3CCC4=CC(=O)C=C[C@]4(C)[C@@]3(F)[C@@H](O)C[C@]2(C)[C@H]1C(=O)CO; result = -11%

For quick reference, copied from above (study 2):
Structure (SMILES) = COC(=O)c1c(NC(=O)c2ccco2)sc2c1CCC2; result = 1.14%
Structure (SMILES) = CCCNS(=O)(=O)c1nc2nc(C)cc(C)n2n1; result = 47.5%
Structure (SMILES) = CC(=O)Nc1ccccc1C(c1ccc(C)o1)c1ccc(C)o1; result = 2.16%
Structure (SMILES) = CN1C(=O)OC2(C)CC(C)(C)c3ccccc3C12C (centres unmarked); result = 0.415%
